Results of several laboratories.
± marks the error that the study gave.

Compound	assay	system	setting	measurement	value
O=C(O)/C=C\c1ccc2occc2c1O[C@@H]1O[C@H](CO)[C@@H](O)[C@H](O)[C@H]1O		rat, plasma	oral, 217 mg/kg Pc extract, dosed as Pc extract	Tmax	130 ± 69 min
[2H]c1nc([2H])c(-c2nc([2H])n3c2C([2H])([2H])N=C(c2ccccn2)c2cc(C#C)ccc2-3)o1		Sprague Dawley rat, brain	oral, 2 mg/kg, cassette dosing	Tmax	~60 min
CC(C)N1CCCCC1C(=O)NC(Cc1ccc(-c2ccccc2)cc1)B(O)O (centres unmarked)		male Sprague-Dawley rats, plasma	intravenous, 1 mg/kg, citrate ester	tmax	4.8 min
O=c1cc(-c2ccc(O)cc2)oc2c([C@@H]3OC[C@H](O)[C@H](O)[C@H]3O)c(O)c([C@@H]3O[C@H](CO)[C@@H](O)[C@H](O)[C@H]3O)c(O)c12		rat	intraperitoneal, 150 mg/kg	Tmax	60 min
COCC12CCC(OC)C34C5CC6(O)C(OC)C(O)C(O)(C5C6OC(=O)c5ccccc5)C(C(OC)C13)C4N(C)C2 (centres unmarked)		Sprague-Dawley rat, plasma	oral, dose not given, with H in PCW extract	Tmax	35 ± 8.64 min
CC[C@H](C)[C@H](NC(=O)[C@H](Cc1ccc(O)cc1)NC(=O)[C@@H](NC(=O)[C@H](CCCNC(=N)N)NC(=O)[C@@H](N)CC(=O)O)C(C)C)C(=O)N[C@@H](Cc1c[nH]cn1)C(=O)N1CCC[C@H]1C(=O)O	LC-MS/MS	Sprague-Dawley rat both sexes, plasma	subcutaneous, 10 mg/kg/day, day 0	Tmax	15 min
CCN1CC2(COC)C(O)CC(OC)C34C5CC6(O)C(OC)C(O)C(O)(C5C6OC(=O)c5ccccc5)C(C(OC)C23)C14 (centres unmarked)		Sprague-Dawley rat, plasma	oral, dose not given, with H in PCW extract	Tmax	55 ± 8.64 min
CN1CCCCC1C(=O)NC(Cc1ccc(-c2ccccc2)cc1)B(O)O (centres unmarked)		male Sprague-Dawley rats, plasma	intravenous, 1 mg/kg, citrate ester	tmax	4.8 min

Excerpt of the above:
Compound	assay	system	setting	measurement	value
CC(C)N1CCCCC1C(=O)NC(Cc1ccc(-c2ccccc2)cc1)B(O)O (centres unmarked)		male Sprague-Dawley rats, plasma	intravenous, 1 mg/kg, citrate ester	tmax	4.8 min
